Results from different studies.
A part holds a random share of what one study measured.
Sequence of UniProt P46098 (whole entry, looked up): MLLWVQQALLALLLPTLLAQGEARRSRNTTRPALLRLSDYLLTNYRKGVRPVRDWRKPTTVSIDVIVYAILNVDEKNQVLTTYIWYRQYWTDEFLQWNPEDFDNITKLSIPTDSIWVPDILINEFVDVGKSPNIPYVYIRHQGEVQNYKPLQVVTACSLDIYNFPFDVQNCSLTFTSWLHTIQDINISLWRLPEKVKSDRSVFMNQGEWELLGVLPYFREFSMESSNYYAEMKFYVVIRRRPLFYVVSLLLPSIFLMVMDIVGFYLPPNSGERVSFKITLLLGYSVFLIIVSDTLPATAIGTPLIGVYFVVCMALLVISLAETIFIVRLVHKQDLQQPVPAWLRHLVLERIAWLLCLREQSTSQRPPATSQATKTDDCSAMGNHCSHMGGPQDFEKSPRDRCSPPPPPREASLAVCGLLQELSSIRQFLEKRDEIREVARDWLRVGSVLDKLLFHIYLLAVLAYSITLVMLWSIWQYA
Sequence of UniProt P53778 (whole entry, looked up): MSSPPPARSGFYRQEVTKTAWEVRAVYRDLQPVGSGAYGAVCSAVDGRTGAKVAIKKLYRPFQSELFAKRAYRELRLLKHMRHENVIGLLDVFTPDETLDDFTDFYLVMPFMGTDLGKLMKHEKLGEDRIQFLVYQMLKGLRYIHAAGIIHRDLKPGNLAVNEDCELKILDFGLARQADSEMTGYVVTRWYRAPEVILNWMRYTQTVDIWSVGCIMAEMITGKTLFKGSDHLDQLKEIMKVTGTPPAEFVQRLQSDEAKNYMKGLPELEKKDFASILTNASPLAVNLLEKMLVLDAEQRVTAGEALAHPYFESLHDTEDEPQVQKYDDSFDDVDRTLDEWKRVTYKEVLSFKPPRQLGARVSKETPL
Sequence of UniProt P47898 (whole entry, looked up): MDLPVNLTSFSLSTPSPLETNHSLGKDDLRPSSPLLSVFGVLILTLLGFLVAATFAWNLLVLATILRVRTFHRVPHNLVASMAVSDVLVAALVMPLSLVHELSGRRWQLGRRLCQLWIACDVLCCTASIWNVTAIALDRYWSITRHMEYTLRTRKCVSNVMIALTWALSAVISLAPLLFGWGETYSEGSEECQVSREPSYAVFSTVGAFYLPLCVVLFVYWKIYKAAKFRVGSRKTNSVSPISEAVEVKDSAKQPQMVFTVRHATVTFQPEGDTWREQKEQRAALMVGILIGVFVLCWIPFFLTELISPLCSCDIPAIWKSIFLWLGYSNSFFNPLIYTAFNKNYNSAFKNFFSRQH
Sequence of UniProt Q8IYT8 (whole entry, looked up): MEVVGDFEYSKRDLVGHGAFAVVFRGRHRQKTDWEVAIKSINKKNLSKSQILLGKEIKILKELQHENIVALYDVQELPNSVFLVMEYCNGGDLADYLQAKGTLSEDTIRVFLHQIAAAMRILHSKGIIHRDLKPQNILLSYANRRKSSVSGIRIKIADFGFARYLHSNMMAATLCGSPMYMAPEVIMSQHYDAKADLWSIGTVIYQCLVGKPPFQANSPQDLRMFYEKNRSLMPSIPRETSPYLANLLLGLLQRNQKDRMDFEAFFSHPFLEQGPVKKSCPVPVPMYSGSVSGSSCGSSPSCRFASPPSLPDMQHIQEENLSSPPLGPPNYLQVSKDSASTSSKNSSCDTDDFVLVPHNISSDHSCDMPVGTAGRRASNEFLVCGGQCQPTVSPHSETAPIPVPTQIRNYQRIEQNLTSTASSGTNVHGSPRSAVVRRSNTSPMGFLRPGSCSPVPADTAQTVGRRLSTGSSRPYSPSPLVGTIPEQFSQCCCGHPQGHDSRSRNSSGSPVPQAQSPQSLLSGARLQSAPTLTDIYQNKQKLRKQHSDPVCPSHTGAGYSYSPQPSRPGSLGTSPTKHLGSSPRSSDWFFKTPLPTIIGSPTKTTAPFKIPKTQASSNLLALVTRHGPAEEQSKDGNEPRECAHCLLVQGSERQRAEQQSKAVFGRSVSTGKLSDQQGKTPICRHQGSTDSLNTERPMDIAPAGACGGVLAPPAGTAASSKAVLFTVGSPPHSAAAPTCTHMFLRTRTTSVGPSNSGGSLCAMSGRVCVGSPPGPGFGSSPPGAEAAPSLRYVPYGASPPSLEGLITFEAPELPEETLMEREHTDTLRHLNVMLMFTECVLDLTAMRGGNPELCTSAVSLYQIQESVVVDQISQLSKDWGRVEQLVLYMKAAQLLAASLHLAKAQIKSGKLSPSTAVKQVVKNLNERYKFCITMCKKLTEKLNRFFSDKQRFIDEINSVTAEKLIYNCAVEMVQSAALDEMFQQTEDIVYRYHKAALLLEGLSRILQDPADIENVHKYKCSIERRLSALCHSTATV
Sequence of UniProt P41595 (whole entry, looked up): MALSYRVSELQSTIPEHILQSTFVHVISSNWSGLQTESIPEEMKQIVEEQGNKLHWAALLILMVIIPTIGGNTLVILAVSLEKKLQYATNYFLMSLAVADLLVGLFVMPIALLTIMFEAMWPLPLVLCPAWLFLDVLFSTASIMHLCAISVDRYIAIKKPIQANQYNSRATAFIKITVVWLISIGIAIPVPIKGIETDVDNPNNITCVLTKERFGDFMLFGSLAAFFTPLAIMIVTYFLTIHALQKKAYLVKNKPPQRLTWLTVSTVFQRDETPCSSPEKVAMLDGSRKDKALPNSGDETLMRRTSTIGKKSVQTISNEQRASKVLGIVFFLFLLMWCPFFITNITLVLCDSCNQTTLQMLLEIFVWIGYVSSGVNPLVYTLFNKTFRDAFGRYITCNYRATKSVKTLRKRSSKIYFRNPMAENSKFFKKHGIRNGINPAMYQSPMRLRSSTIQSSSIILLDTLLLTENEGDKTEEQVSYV
Sequence of UniProt Q16566 (whole entry, looked up): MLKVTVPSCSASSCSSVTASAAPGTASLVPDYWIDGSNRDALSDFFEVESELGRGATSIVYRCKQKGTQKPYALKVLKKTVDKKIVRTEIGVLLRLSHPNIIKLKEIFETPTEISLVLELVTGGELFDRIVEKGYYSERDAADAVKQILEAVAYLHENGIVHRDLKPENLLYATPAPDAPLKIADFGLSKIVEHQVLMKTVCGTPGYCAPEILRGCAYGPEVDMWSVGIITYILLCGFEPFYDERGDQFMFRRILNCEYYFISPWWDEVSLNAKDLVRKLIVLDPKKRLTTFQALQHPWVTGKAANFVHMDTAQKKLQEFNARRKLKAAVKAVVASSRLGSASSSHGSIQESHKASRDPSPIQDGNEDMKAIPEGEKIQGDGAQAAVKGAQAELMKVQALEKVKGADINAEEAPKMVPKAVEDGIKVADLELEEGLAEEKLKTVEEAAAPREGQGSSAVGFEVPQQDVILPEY
Sequence of UniProt Q07002 (whole entry, looked up): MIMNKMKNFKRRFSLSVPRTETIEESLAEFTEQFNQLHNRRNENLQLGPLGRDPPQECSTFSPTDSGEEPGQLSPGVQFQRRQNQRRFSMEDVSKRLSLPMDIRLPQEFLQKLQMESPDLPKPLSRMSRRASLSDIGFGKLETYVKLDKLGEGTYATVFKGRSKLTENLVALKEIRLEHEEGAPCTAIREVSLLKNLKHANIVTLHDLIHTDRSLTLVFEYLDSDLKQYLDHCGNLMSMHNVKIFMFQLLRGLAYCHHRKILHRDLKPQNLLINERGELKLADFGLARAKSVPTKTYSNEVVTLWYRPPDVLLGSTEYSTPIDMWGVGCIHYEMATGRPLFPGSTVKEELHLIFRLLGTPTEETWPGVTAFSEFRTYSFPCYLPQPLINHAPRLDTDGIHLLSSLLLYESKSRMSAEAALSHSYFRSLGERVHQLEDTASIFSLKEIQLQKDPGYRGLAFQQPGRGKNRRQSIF
Sequence of UniProt Q9P1W9 (whole entry, looked up): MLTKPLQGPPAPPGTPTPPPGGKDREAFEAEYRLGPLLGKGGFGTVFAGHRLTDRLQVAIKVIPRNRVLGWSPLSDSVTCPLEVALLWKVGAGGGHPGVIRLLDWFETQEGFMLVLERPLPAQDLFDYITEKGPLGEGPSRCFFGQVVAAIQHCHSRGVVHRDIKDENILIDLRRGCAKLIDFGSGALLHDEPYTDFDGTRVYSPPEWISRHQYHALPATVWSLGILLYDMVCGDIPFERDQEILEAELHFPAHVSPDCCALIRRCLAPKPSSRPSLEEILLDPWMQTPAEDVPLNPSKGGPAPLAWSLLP
Sequence of UniProt P07332 (whole entry, looked up): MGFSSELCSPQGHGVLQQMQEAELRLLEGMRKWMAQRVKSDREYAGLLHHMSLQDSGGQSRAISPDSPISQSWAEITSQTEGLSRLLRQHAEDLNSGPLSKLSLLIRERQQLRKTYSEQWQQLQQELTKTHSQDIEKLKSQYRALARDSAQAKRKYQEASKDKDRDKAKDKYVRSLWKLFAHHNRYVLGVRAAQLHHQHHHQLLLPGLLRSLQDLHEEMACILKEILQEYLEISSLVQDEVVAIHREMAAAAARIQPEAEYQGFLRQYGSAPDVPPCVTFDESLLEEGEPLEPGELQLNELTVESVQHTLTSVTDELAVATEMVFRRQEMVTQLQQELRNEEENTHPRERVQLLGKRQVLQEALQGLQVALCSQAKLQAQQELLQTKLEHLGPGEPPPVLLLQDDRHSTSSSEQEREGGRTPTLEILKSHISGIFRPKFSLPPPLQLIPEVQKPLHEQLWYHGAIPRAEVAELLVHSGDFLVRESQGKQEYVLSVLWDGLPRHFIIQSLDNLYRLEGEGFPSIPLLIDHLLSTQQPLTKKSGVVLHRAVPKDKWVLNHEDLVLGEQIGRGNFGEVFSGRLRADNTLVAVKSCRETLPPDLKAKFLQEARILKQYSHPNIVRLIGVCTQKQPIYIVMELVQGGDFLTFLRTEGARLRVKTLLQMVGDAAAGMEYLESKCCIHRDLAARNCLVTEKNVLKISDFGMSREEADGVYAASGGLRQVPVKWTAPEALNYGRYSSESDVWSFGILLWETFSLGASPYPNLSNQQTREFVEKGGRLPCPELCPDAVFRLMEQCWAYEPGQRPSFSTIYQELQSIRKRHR

Set 1
Cell line: A-375
Concentration: 100 µM
Time: 36 h
Endpoint: viability
CC(C)(C(=O)c1cccnc1)c1cccnc1: 106%
COc1cc2c(cc1OC)CC(=O)N(CCCN(C)C[C@H]1Cc3cc(OC)c(OC)cc31)CC2: 108%
Cc1ccc(Nc2nccc(N(C)c3ccc4c(C)n(C)nc4c3)n2)cc1S(N)(=O)=O: 45.2%
Nc1nnc(-c2cccc(Cl)c2Cl)c(N)n1: 115%
CC1(C)[C@@H](OC(=O)CCC(=O)O)CC[C@]2(C)[C@H]3C(=O)C=C4[C@@H]5C[C@@](C)(C(=O)O)CC[C@]5(C)CC[C@@]4(C)[C@]3(C)CC[C@@H]12: 19.6%
COC(=O)Nc1nc2ccc(C(=O)c3ccccc3)cc2[nH]1: 3.4%
NC(=O)NO: 98.1%

Set 2
Structure (SMILES): Cc1nc(Nc2ncc(C(=O)Nc3c(C)cccc3Cl)s2)cc(N2CCN(CCO)CC2)n1
Action: inhibitor
Concentration: 10 µM
Endpoint: inhibition
Mitogen-activated protein kinase 12 (MAPK12, Homo sapiens, UniProt P53778): < 50%
Tyrosine-protein kinase Fes/Fps (FES, Homo sapiens, UniProt P07332): 68%
TRAF2 and NCK-interacting protein kinase (TNIK, Homo sapiens, UniProt Q9UKE5): 82%
Serine/threonine-protein kinase pim-2 (PIM2, Homo sapiens, UniProt Q9P1W9): < 50%
Serine/threonine-protein kinase ULK2 (ULK2, Homo sapiens, UniProt Q8IYT8): < 50%
Mitogen-activated protein kinase kinase kinase kinase 4 (MAP4K4, Homo sapiens, UniProt O95819): 77%
Cyclin-dependent kinase 18 (CDK18, Homo sapiens, UniProt Q07002): < 50%
Calcium/calmodulin-dependent protein kinase type IV (CAMK4, Homo sapiens, UniProt Q16566): < 50%

Set 3
Structure (SMILES): CCOC(=O)c1cc2cc(-c3cc(C(=O)NCc4ccc(C(=O)O)cc4)nn3C)ccc2[nH]1
Effect on: binding
Technique: radioligand binding
Concentration: 10 µM
Endpoint: inhibition
5-hydroxytryptamine receptor 2B (HTR2B, Homo sapiens, UniProt P41595): 8.13%
5-hydroxytryptamine receptor 5A (HTR5A, Homo sapiens, UniProt P47898): 14.8%
5-hydroxytryptamine receptor 3A (HTR3A, Homo sapiens, UniProt P46098): 34.8%

Set 4
Cell line: mouse MPNST tumor cells
Technique: high-content nuclear imaging
Item: cell number
Concentration: 10 µM
Time: 12 h
Setting: mean of 2 replicates
Baseline: plate mean
Direction: higher = more cells
Endpoint: nuclei count
CN(CC[C@@H](Oc1ccc(C(F)(F)F)cc1)c1ccccc1)CC(=O)O: 0.106 z-score
CC(C)NC[C@H](O)COc1ccc(CC(N)=O)cc1: -0.672 z-score
Cc1scc2c1N(C(=O)CN1CCN(C)CC1)c1ccccc1NC2=O: 1.46 z-score
CC(C)Oc1ccc(Cc2ccc(NC3=NCCN3)cc2)cc1: -3.63 z-score
COc1cc(Nc2c(C#N)cnc3cc(OCCCN4CCN(C)CC4)c(OC)cc23)c(Cl)cc1Cl: -4.69 z-score
CCOc1ccc(NC(=S)N2CCC(C(O)(c3ccccc3)c3ccccc3)CC2)cc1: 3.63 z-score
CC(CN(C)C)CN1c2ccccc2CCc2ccccc21 (centres unmarked): 0.374 z-score
CC(C)Cn1cc(C#N)c2cc(Oc3ccc(NC(=O)[C@@H]4CCCN4)cc3)ccc21: -6.17 z-score

For quick reference, copied from above (set 1):
Nc1nnc(-c2cccc(Cl)c2Cl)c(N)n1: 115%
CC(C)(C(=O)c1cccnc1)c1cccnc1: 106%
COC(=O)Nc1nc2ccc(C(=O)c3ccccc3)cc2[nH]1: 3.4%
COc1cc2c(cc1OC)CC(=O)N(CCCN(C)C[C@H]1Cc3cc(OC)c(OC)cc31)CC2: 108%
